Results pooled from the literature.
Compare with care: the assays were run in different laboratories. Numbers after ± are the reported error.
Organism: Pseudomonas aeruginosa

Substance = CC[C@H](C)[C@H](NC(=O)[C@H](C)NC(=O)[C@@H](NC(=O)[C@H](C)NC(=O)CN)[C@@H](C)O)C(=O)N[C@@H](CCCCN)C(=O)N[C@@H](CCC(N)=O)C(=O)N[C@H](C(=O)N[C@@H](CCCCN)C(=O)N[C@@H](CCCCN)C(=O)N[C@@H](CC(C)C)C(=O)N[C@@H](Cc1ccccc1)C(=O)N[C@@H](CCCCN)C(=O)N[C@@H](CCCCN)C(=O)N[C@@H](CCCCN)C(=O)NCC(=O)NCC(N)=O)C(C)C; test = broth microdilution; test system = ATCC 9027; setting = 24 h, 37 °C; endpoint = MIC50; result = 155 µM
Substance = GIGKWLHSAKKFGKAFVGEIMNS-NH2 (C-amide); test = bacterial growth, broth microdilution; test system = peptide, PAO1, Mueller-Hinton broth; setting = overnight, 37 °C; endpoint = MIC50; result = 7.29 ± 2.73 µg/mL
Substance = CC(C)C[C@H](NC(=O)[C@H](C)NC(=O)[C@H](CCCCN)NC(=O)[C@H](C)NC(=O)[C@H](CC(C)C)NC(=O)[C@H](CCCCN)NC(=O)[C@H](CC(C)C)NC(=O)[C@H](Cc1c[nH]c2ccccc12)NC(=O)[C@H](CC(C)C)NC(=O)[C@H](CC(C)C)NC(=O)[C@H](C)NC(=O)[C@@H]1CCCN1C(=O)[C@H](CC(C)C)NC(=O)[C@H](CCCCN)NC(=O)[C@H](CC(C)C)NC(=O)[C@H](C)NC(=O)[C@H](CCCCN)NC(=O)[C@H](C)NC(=O)[C@H](CC(C)C)NC(=O)[C@H](CCCCN)NC(=O)[C@@H](N)CCCCN)C(=O)N[C@@H](CCCCN)C(=O)N[C@@H](CCCCN)C(=O)N[C@@H](C)C(N)=O; test = broth microdilution; test system = PAO1; setting = overnight, 37 °C; endpoint = MIC50; result = 1.18 ± 0.53 µM
Substance = CC[C@H](C)CCCCC(=O)N[C@@H](CCN)C(=O)N[C@H](C(=O)N[C@@H](CCN)C(=O)N[C@H]1CCNC(=O)[C@H]([C@@H](C)O)NC(=O)[C@H](CCN)NC(=O)[C@H](CCN)NC(=O)[C@H](CC(C)C)NC(=O)[C@@H](Cc2ccccc2)NC(=O)[C@H](CCN)NC1=O)[C@@H](C)O; test system = carbapenem-resistant, human; setting = inhaled plus intravenous, 25 mg inhaled plus 100 mg intravenous every 12 h, 5 d, added: meropenem and piperacillin/tazobactam; endpoint = microbiological response at end of treatment; result = negative
Substance = CC[C@H](C)[C@H](N)C(=O)N[C@@H](CC(C)C)C(=O)N1CCC[C@H]1C(=O)N[C@@H](Cc1c[nH]c2ccccc12)C(=O)N[C@@H](CCCCN)C(=O)N[C@@H](Cc1c[nH]c2ccccc12)C(=O)N1CCC[C@H]1C(=O)N[C@@H](Cc1c[nH]c2ccccc12)C(=O)N[C@@H](Cc1c[nH]c2ccccc12)C(=O)N1CCC[C@H]1C(=O)N[C@@H](Cc1c[nH]c2ccccc12)C(=O)N[C@@H](CCCNC(=N)N)C(=O)N[C@@H](CCCNC(=N)N)C(N)=O; test = broth microdilution; setting = 18 h, 10 clinical isolates; endpoint = MIC50; result = 16 µg/mL
Substance = CC[C@H](C)[C@H](NC(=O)[C@H](C)NC(=O)[C@@H](NC(=O)[C@H](C)NC(=O)CNC(C)=O)[C@@H](C)O)C(=O)N[C@@H](CCCCN)C(=O)N[C@@H](CCC(N)=O)C(=O)N[C@H](C(=O)N[C@@H](CCCCN)C(=O)N[C@@H](CCCCN)C(=O)N[C@@H](CC(C)C)C(=O)N[C@@H](Cc1ccccc1)C(=O)N[C@@H](CCCCN)C(=O)N[C@@H](CCCCN)C(=O)N[C@@H](CCCCN)C(=O)NCC(=O)NCC(N)=O)C(C)C; test = broth microdilution; test system = ATCC 9027; setting = 24 h, 37 °C; endpoint = MIC50; result = 155 µM
Substance = CC(C)C[C@H](NC(=O)[C@H](C)NC(=O)[C@H](CCCCN)NC(=O)[C@H](Cc1c[nH]c2ccccc12)NC(=O)[C@H](CC(C)C)NC(=O)[C@H](CC(C)C)NC(=O)[C@H](C)NC(=O)[C@H](CC(C)C)NC(=O)[C@H](CCCCN)NC(=O)[C@H](C)NC(=O)[C@@H]1CCCN1C(=O)[C@H](C)NC(=O)[C@H](CC(C)C)NC(=O)[C@H](CCCCN)NC(=O)[C@H](CC(C)C)NC(=O)[C@H](CCCCN)NC(=O)[C@@H](N)CCCCN)C(=O)N[C@@H](C)C(=O)N[C@@H](CC(C)C)C(=O)N[C@@H](CCCCN)C(=O)N[C@@H](CC(C)C)C(=O)N[C@@H](CCCCN)C(=O)N[C@@H](CCCCN)C(=O)N[C@@H](C)C(N)=O; test = broth microdilution; test system = PAO1; setting = overnight, 37 °C; endpoint = MIC50; result = 2.98 ± 0.21 µM
Substance = CC[C@H](C)[C@H](NC(=O)[C@H](C)NC(=O)[C@@H](NC(=O)[C@H](C)NC(=O)CNC(=O)[C@H](CCSC)NC(=O)[C@H](CCC(N)=O)NC(=O)[C@H](CC(C)C)NC(=O)[C@H](CO)NC(=O)[C@@H](N)Cc1ccc(O)cc1)[C@@H](C)O)C(=O)N[C@@H](CCCCN)C(=O)N[C@@H](CCC(N)=O)C(=O)N[C@H](C(=O)N[C@@H](CCCCN)C(=O)N[C@@H](CCCCN)C(=O)N[C@@H](CC(C)C)C(=O)N[C@@H](Cc1ccccc1)C(=O)N[C@@H](CCCCN)C(=O)N[C@@H](CCCCN)C(=O)N[C@@H](CCCCN)C(=O)NCC(=O)NCC(N)=O)C(C)C; test = broth microdilution; test system = ATCC 9027; setting = 24 h, 37 °C; endpoint = MIC50; result = 155 µM
Substance = CC[C@H](C)CCCCC(=O)N[C@@H](CCN)C(=O)N[C@H](C(=O)N[C@@H](CCN)C(=O)N[C@H]1CCNC(=O)[C@H]([C@@H](C)O)NC(=O)[C@H](CCN)NC(=O)[C@H](CCN)NC(=O)[C@H](CC(C)C)NC(=O)[C@@H](Cc2ccccc2)NC(=O)[C@H](CCN)NC1=O)[C@@H](C)O; test system = PAO1 vacJ mutant, cation-adjusted Mueller-Hinton broth; scale = relative to: vacJ mutant over wild type; endpoint = MIC decrease; result = 2 fold
Substance = Cc1cc(F)ccc1CNO; test = microbial growth; test system = ATCC15692; setting = 8 h; endpoint = MIC50; result = < 70 µg/mL
Substance = CC(C)C[C@H](NC(=O)[C@H](C)NC(=O)[C@H](CCCCN)NC(=O)[C@H](C)NC(=O)[C@H](CC(C)C)NC(=O)[C@H](CCCCN)NC(=O)[C@H](CC(C)C)NC(=O)[C@H](Cc1c[nH]c2ccccc12)NC(=O)[C@H](CC(C)C)NC(=O)[C@H](CC(C)C)NC(=O)[C@H](C)NC(=O)[C@H](CC(C)C)NC(=O)[C@H](CC(C)C)NC(=O)[C@H](CCCCN)NC(=O)[C@@H]1CCCN1C(=O)[C@H](C)NC(=O)[C@H](CCCCN)NC(=O)[C@H](C)NC(=O)[C@H](CC(C)C)NC(=O)[C@H](CCCCN)NC(=O)[C@@H](N)CCCCN)C(=O)N[C@@H](CCCCN)C(=O)N[C@@H](CCCCN)C(=O)N[C@@H](C)C(N)=O; test = broth microdilution; test system = PAO1; setting = overnight, 37 °C; endpoint = MIC50; result = 2.13 ± 0.77 µM
